Measured values of several laboratories.
Compare with care: the assays were run in different laboratories. ± gives the spread as reported. In brackets after ≈: the same amount, converted by molar mass.

Molecule	organism	test	system	setting	MIC
CC1(C)SC2C(NC(=O)C(NC(=O)C3=C(O)C(Cc4ccc([N+](=O)[O-])cc4)NC3=O)c3ccccc3)C(=O)N2C1C(=O)O (stereo not shown)	Escherichia coli	broth microdilution	BW25113, Mueller-Hinton broth	added: 2,2'-bipyridyl 30 µg/mL	25 µg/mL (≈ 41 µM)
O=C(N[C@@H](Cn1ccnc1)c1ccc(Cl)cc1Cl)c1ccc(-c2nnc(-c3ccccc3)o2)cc1	Acanthamoeba castellanii	parasite growth, resazurin		96 h	8 µg/mL (≈ 15.9 µM)
Cc1ccc(S(=O)(=O)N2C(=O)CSC2c2cccc(O)c2)cc1 (stereo not shown)	Lacticaseibacillus casei	broth microdilution	NCIM 2651		32 µg/mL (≈ 91.6 µM)
CC1(C)SC2C(NC(=O)C(NC(=O)C3=C(O)CN(c4ccccc4)C3=O)c3ccccc3)C(=O)N2C1C(=O)O (stereo not shown)	Escherichia coli	broth microdilution	BW25113, Mueller-Hinton broth	added: 2,2'-bipyridyl 30 µg/mL	100 µg/mL (≈ 182 µM)
pneumocandin A0	Candida albicans	broth microdilution, resazurin	ATCC 10231	24 h, 35 °C	0.8 µg/mL
OB(O)O	Serratia marcescens	broth macrodilution	clinical isolate	added: zinc borate 9%	0.375%
N#Cc1ccc(COc2ccc(C#Cc3ccc(C(F)(F)[C@](O)(Cn4cnnn4)c4ccc(F)cc4F)nc3)cc2)cc1	Acanthamoeba castellanii	parasite growth, resazurin		96 h	0.045 µg/mL (≈ 0.077 µM)
Cc1ccc(S(=O)(=O)N2C(=O)CSC2c2ccc(C(C)C)cc2)cc1 (stereo not shown)	Lacticaseibacillus casei	broth microdilution	NCIM 2651		> 256 µg/mL
CC1(C)S[C@@H]2[C@H](NC(=O)[C@H](N)c3ccccc3)C(=O)N2[C@H]1C(=O)O	Lacticaseibacillus casei	broth microdilution	ATCC 393, MRS medium	24 h, 37 °C	2.5 ± 0.5 µg/mL (≈ 7.15 µM)
CC1(C)SC2C(NC(=O)C(NC(=O)C3=C(O)CNC3=O)c3ccccc3)C(=O)N2C1C(=O)O (stereo not shown)	Escherichia coli	broth microdilution	BW25113, Mueller-Hinton broth	18 h, without clavulanic acid	200 µg/mL
pneumocandin I	Candida albicans	broth microdilution, resazurin	ATCC 90028	24 h, 35 °C	0.1 µg/mL
Cc1ccc(S(=O)(=O)N2C(=O)CSC2c2ccccc2)cc1 (stereo not shown)	Lacticaseibacillus casei	broth microdilution	NCIM 2651		64 µg/mL (≈ 192 µM)
LSTFFRLFN	Streptococcus sanguinis	broth microdilution	peptide, ATCC 49295	24 h, 37 °C, planktonic, anaerobic	> 256 µg/mL
CN1CC(O)=C(C(=O)NC(C(=O)NC2C(=O)N3C2SC(C)(C)C3C(=O)O)c2ccccc2)C1=O (stereo not shown)	Escherichia coli	broth microdilution	BW25113, Mueller-Hinton broth		100 µg/mL (≈ 205 µM)
Cc1ccc(S(=O)(=O)N2C(=O)CSC2c2ccccc2Br)cc1 (stereo not shown)	Lacticaseibacillus casei	broth microdilution	NCIM 2651		64 µg/mL (≈ 155 µM)
CC(C)(C)OCC1NC(=O)C(C(=O)NC(C(=O)NC2C(=O)N3C2SC(C)(C)C3C(=O)O)c2ccccc2)=C1O (stereo not shown)	Escherichia coli	broth microdilution	BW25113, Mueller-Hinton broth		50 µg/mL (≈ 89.2 µM)
Cc1ccc(S(=O)(=O)N2C(=O)CSC2c2ccccc2O)cc1 (stereo not shown)	Lacticaseibacillus casei	broth microdilution	NCIM 2651		64 µg/mL (≈ 183 µM)
CC(C)(C)Oc1ccc(CC2NC(=O)C(C(=O)NC(C(=O)NC3C(=O)N4C3SC(C)(C)C4C(=O)O)c3ccccc3)=C2O)cc1 (stereo not shown)	Escherichia coli	broth microdilution	BW25113, Mueller-Hinton broth	added: CCCP 50 µg/mL	12.5 µg/mL (≈ 19.6 µM)
Cc1ccc(S(=O)(=O)N2C(=O)CSC2c2ccccc2F)cc1 (stereo not shown)	Lacticaseibacillus casei	broth microdilution	NCIM 2651		4 µg/mL (≈ 11.4 µM)
